Experimental data pooled from the literature.
Protocols differ between the studies behind these lines.

| SMILES | organism | test | system | setting | MIC |
| --- | --- | --- | --- | --- | --- |
| CC(C)[C@H](NC(=O)[C@H](CCCNC(=N)N)NC(=O)[C@H](Cc1c[nH]c2ccccc12)NC(=O)[C@H](CCCNC(=N)N)NC(=O)[C@H](Cc1c[nH]c2ccccc12)NC(=O)[C@H](Cc1c[nH]c2ccccc12)NC(=O)[C@H](Cc1c[nH]c2ccccc12)NC(=O)[C@H](CCCNC(=N)N)NC(=O)[C@H](Cc1c[nH]c2ccccc12)NC(=O)[C@@H](N)CCCNC(=N)N)C(N)=O | Candida albicans | broth microdilution | CGMCC 2.209, RPMI 1640-MOPS | 48 h, 30 °C, together with: NH4Cl 6 µM | 32 µM |
| CCCCCCCCCC(=O)N[C@@H](Cc1c[nH]c2ccccc12)C(=O)N[C@H](CC(N)=O)C(=O)N[C@@H](CC(=O)O)C(=O)N[C@@H]1C(=O)NCC(=O)N[C@@H](CCCN)C(=O)N[C@@H](CC(=O)O)C(=O)N[C@H](C)C(=O)N[C@@H](CC(=O)O)C(=O)NCC(=O)N[C@H](CO)C(=O)N[C@@H]([C@H](C)CC(=O)O)C(=O)N[C@@H](CC(=O)c2ccccc2N)C(=O)O[C@@H]1C | Salmonella enterica serovar Typhimurium | broth dilution | SL1344 | – | inactive |
| CC(C)C[C@@H](NC(=O)[C@H](C)NC(=O)CNC(=O)[C@@H](NC=O)C(C)C)C(=O)N[C@@H](C)C(=O)N[C@@H](C(=O)N[C@H](C(=O)N[C@@H](C(=O)N[C@@H](Cc1c[nH]c2ccccc12)C(=O)N[C@H](CC(C)C)C(=O)N[C@@H](Cc1cccc2cc[nH]c12)C(=O)N[C@H](CC(C)C)C(=O)N[C@@H](Cc1c[nH]c2ccccc12)C(=O)N[C@H](CC(C)C)C(=O)N[C@@H](Cc1c[nH]c2ccccc12)C(=O)NCCO)C(C)C)C(C)C)C(C)C | Listeria monocytogenes | broth microdilution | 10403S | – | 1.1 µM |
| CC1(C)SC2C(NC(=O)C(NC(=O)C3=C(O)C4CCCN4C3=O)c3ccccc3)C(=O)N2C1C(=O)O (stereo not drawn) | Escherichia coli | broth microdilution | isolate IU 356 A, KPC-3, VIM-1, TEM | together with: clavulanic acid 6 µg/mL | > 200 µg/mL |
| N=C(N)NCCC[C@H](NC(=O)CCCCCNC(=O)[C@H](CCCNC(=N)N)NC(=O)[C@H](CCCNC(=N)N)NC(=O)CCCCCNC(=O)[C@H](CCCNC(=N)N)NC(=O)[C@H](CCCNC(=N)N)NC(=O)CCCCCNC(=O)[C@H](CCCNC(=N)N)NC(=O)[C@H](CCCNC(=N)N)NC(=O)CCCCCNC(=O)[C@@H](N)CCCNC(=N)N)C(=O)NCCCCCC(=O)NCCC(=O)O | Escherichia coli | – | ATCC 25922 | 1 h, 37 °C, after 90% human serum | > 192 µM |
| N=C(N)NCCC[C@H](NC(=O)CN)C(=O)N[C@@H](Cc1c[nH]c2ccccc12)C(=O)N[C@@H](CCCNC(=N)N)C(=O)N[C@@H](Cc1c[nH]c2ccccc12)C(=O)N[C@@H](Cc1c[nH]c2ccccc12)C(=O)N[C@@H](Cc1c[nH]c2ccccc12)C(=O)N[C@@H](CCCNC(=N)N)C(=O)N[C@@H](Cc1c[nH]c2ccccc12)C(=O)N[C@@H](CCCNC(=N)N)C(=O)N[C@@H](Cc1c[nH]c2ccccc12)C(N)=O | Candida albicans | broth microdilution | 56467, RPMI 1640-MOPS | 48 h, 30 °C | 8 µM |
| CC(C)C[C@H](NC(=O)[C@@H](NC(=O)[C@H](CCCNC(=N)N)NC(=O)[C@H](CCC(N)=O)NC(=O)[C@H](Cc1ccccc1)NC(=O)[C@H](Cc1ccc(O)cc1)NC(=O)[C@H](CC(N)=O)NC(=O)[C@H](Cc1c[nH]c2ccccc12)NC(=O)[C@@H](NC(=O)[C@H](CCCNC(=N)N)NC(=O)[C@H](CCCCN)NC(=O)[C@@H](N)Cc1ccccc1)C(C)C)C(C)C)C(=O)N[C@H](C(=O)N[C@@H](CCCCN)C(=O)N[C@@H](CCCCN)C(N)=O)C(C)C | Enterobacter sp. | broth dilution | KCTC 2625 | – | > 100 µM |
| CC1(C)SC2C(NC(=O)C(NC(=O)C3=C(O)CNC3=O)c3ccccc3)C(=O)N2C1C(=O)O (stereo not drawn) | Escherichia coli | broth microdilution | isolate IU 356 A, KPC-3, VIM-1, TEM | no clavulanic acid | > 200 µg/mL |
| CC[C@H](C)[C@H](NC(=O)[C@H](C)NC(=O)[C@H](CCCCN)NC(=O)[C@H](CC(C)C)NC(=O)[C@H](C)NC(=O)[C@@H](NC(=O)[C@H](Cc1c[nH]cn1)NC(=O)[C@H](CC(C)C)NC(=O)[C@@H](NC(=O)[C@@H](NC(=O)[C@H](CCCCN)NC(=O)[C@H](C)NC(=O)[C@H](C)NC(=O)[C@H](CO)NC(=O)[C@H](CCCCN)NC(=O)[C@H](Cc1ccccc1)NC(=O)[C@@H](NC(=O)[C@H](CCCCN)NC(=O)[C@H](CC(C)C)NC(=O)[C@H](Cc1ccccc1)NC(=O)[C@H](CO)NC(=O)[C@H](CCCCN)NC(=O)[C@H](Cc1c[nH]c2ccccc12)NC(=O)[C@H](CCCCN)NC(C)=O)[C@@H](C)O)[C@@H](C)O)C(C)C)[C@@H](C)O)C(=O)N[C@@H](CO)C(=O)N[C@@H](CO)C(N)=O | Enterobacter aerogenes | – | – | geometric mean of 40 strains | 12.3 µg/mL |
| N=C(N)NCCC[C@H](NC(=O)[C@H](Cc1c[nH]c2ccccc12)NC(=O)[C@H](CCCNC(=N)N)NC(=O)[C@H](Cc1c[nH]c2ccccc12)NC(=O)[C@H](Cc1c[nH]c2ccccc12)NC(=O)[C@H](Cc1c[nH]c2ccccc12)NC(=O)[C@H](CCCNC(=N)N)NC(=O)[C@H](Cc1c[nH]c2ccccc12)NC(=O)[C@@H](N)CCCNC(=N)N)C(=O)N[C@@H](Cc1ccccc1)C(N)=O | Candida albicans | broth microdilution | CGMCC 2.209, RPMI 1640-MOPS | 48 h, 30 °C, together with: KCl 4.5 mM | 16 µM |
| CC1(C)SC2C(NC(=O)C(NC(=O)C3=C(O)C(c4ccccc4)NC3=O)c3ccccc3)C(=O)N2C1C(=O)O (stereo not drawn) | Escherichia coli | broth microdilution | Keio mutant JW5195-1 | 18 h | 12.5 µg/mL |
| N=C(N)NCCC[C@H](NC(=O)[C@H](Cc1c[nH]c2ccccc12)NC(=O)[C@H](CCCNC(=N)N)NC(=O)[C@H](Cc1c[nH]c2ccccc12)NC(=O)[C@H](Cc1c[nH]c2ccccc12)NC(=O)[C@H](Cc1c[nH]c2ccccc12)NC(=O)[C@H](CCCNC(=N)N)NC(=O)[C@H](Cc1c[nH]c2ccccc12)NC(=O)[C@H](CCCNC(=N)N)NC(=O)CN)C(N)=O | Candida albicans | broth microdilution | 56214, RPMI 1640-MOPS | 48 h, 30 °C | 8 µM |
| CC[C@H](C)[C@H](N)C(=O)N[C@@H](CCCNC(=N)N)C(=O)N[C@H](C(=O)N[C@@H](Cc1c[nH]c2ccccc12)C(=O)N[C@@H](Cc1c[nH]c2ccccc12)C(=O)N[C@@H](CCCCN)C(=O)N[C@H](C(=O)N[C@H](C(=O)N[C@@H](CCCNC(=N)N)C(=O)N[C@@H](CCCCN)C(=O)N[C@@H](Cc1c[nH]c2ccccc12)C(=O)N[C@@H](CCCCN)C(=O)N[C@@H](C)C(=O)N[C@H](C(=O)N[C@@H](Cc1c[nH]c2ccccc12)C(=O)N[C@@H](Cc1c[nH]cn1)C(N)=O)[C@@H](C)CC)C(C)C)[C@@H](C)CC)C(C)C | Listeria monocytogenes | broth dilution | KCTC 13064 | – | 12.5 µM |
| CC(C)C1NC(=O)C(C(=O)NC(C(=O)NC2C(=O)N3C2SC(C)(C)C3C(=O)O)c2ccccc2)=C1O (stereo not drawn) | Escherichia coli | broth microdilution | Keio mutant JW5086-3 | 18 h, ferrienterobactin permease gene | 25 µg/mL |
| CC[C@H](C)[C@H](NC(=O)[C@H](CC(C)C)NC(=O)[C@H](CCCCN)NC(=O)[C@@H](NC(=O)[C@H](C)NC(=O)[C@H](CCC(=O)O)NC(=O)[C@H](Cc1c[nH]cn1)NC(=O)[C@@H](NC(=O)[C@H](CCCCN)NC(=O)[C@H](CCC(N)=O)NC(=O)[C@H](Cc1ccccc1)NC(=O)[C@@H](NC(=O)[C@H](CCCCN)NC(=O)[C@H](CCCCN)NC(=O)[C@H](CC(C)C)NC(=O)[C@H](C)N)C(C)C)[C@@H](C)CC)[C@@H](C)CC)C(N)=O | Listeria monocytogenes | CLSI broth microdilution | KCTC 3710 | 18 h, 37 °C | 16 µM |
| C[C@@H](O)[C@H]1C(=O)N2C(C(=O)O)=C(SCCN=CN)C[C@H]12 | Klebsiella pneumoniae | – | KPC-2 parental strain K1(4578) | – | 64 µg/mL |
| CN1CC(O)=C(C(=O)NC(C(=O)NC2C(=O)N3C2SC(C)(C)C3C(=O)O)c2ccccc2)C1=O (stereo not drawn) | Escherichia coli | broth microdilution | isolate IU 356 A, KPC-3, VIM-1, TEM | no clavulanic acid | > 200 µg/mL |
| CC(C)C[C@H](NC(=O)[C@H](CCCNC(=N)N)NC(=O)[C@H](Cc1c[nH]c2ccccc12)NC(=O)[C@H](CCCNC(=N)N)NC(=O)[C@H](Cc1c[nH]c2ccccc12)NC(=O)[C@H](Cc1c[nH]c2ccccc12)NC(=O)[C@H](Cc1c[nH]c2ccccc12)NC(=O)[C@H](CCCNC(=N)N)NC(=O)[C@H](Cc1c[nH]c2ccccc12)NC(=O)[C@H](CCCNC(=N)N)NC(=O)CN)C(N)=O | Candida albicans | broth microdilution | alveolar fluid isolate, RPMI 1640-MOPS | 48 h, 30 °C | 32 µM |
| CC1NC(=O)C(C(=O)NC(C(=O)NC2C(=O)N3C2SC(C)(C)C3C(=O)O)c2ccccc2)=C1O (stereo not drawn) | Escherichia coli | broth microdilution | ATCC 35218, low-level TEM-1 | no clavulanic acid | > 200 µg/mL |
| CC(C)C[C@H](NC(=O)[C@H](CCCNC(=N)N)NC(=O)[C@H](Cc1c[nH]c2ccccc12)NC(=O)[C@H](CCCNC(=N)N)NC(=O)[C@H](Cc1c[nH]c2ccccc12)NC(=O)[C@H](Cc1c[nH]c2ccccc12)NC(=O)[C@H](Cc1c[nH]c2ccccc12)NC(=O)[C@H](CCCNC(=N)N)NC(=O)[C@H](Cc1c[nH]c2ccccc12)NC(=O)[C@@H](N)CCCNC(=N)N)C(N)=O | Candida albicans | broth microdilution | CGMCC 2.209, RPMI 1640-MOPS | 48 h, 30 °C, together with: CaCl2 2 mM | 32 µM |
| [O-][N+]1=C(c2ccc(Cl)cc2)C2=NCCN2c2ccccc21 | Fusobacterium nucleatum | – | – | – | 0.06 to 0.125 µg/mL |
